Measurements collected from several papers.
Compare with care: the assays were run in different laboratories.

[O-][N+]1=C(Cc2ccccc2)C2=NCCCN2c2ccccc21  MIC (Bacteroides ovatus; ATCC 84834): 4 µg/mL
c1ccc(CCNC2CCCc3c2[nH]c2ccc(C4CCCCC4)cc32)cc1 (stereo not shown)  MIC (Staphylococcus aureus; broth microdilution; SG511, cation-adjusted MHB): 2 µg/mL
CC1C(=NOCc2cc(-c3ccc(Cl)cc3)no2)C(C)C(c2ccc(Br)cc2)OC1c1ccc(Br)cc1 (stereo not shown)  MIC (Aspergillus flavus; microbial growth): 50 µg/mL
CC[C@H](C)[C@H](NC(=O)[C@H](CC(C)C)NC(=O)[C@H](CC(=O)O)NC(=O)[C@H](CO)NC(=O)[C@H](CCCNC(=N)N)NC(=O)[C@@H](N)CO)C(=O)N[C@H](C(=O)N[C@@H](Cc1c[nH]cn1)C(=O)N[C@@H](CCC(N)=O)C(=O)N[C@@H](CCCNC(=N)N)C(=O)N[C@@H](CC(C)C)C(=O)N[C@@H](Cc1ccccc1)C(N)=O)C(C)C  MIC (Trichophyton rubrum; broth microdilution; ATCC 28189): > 400 µg/mL
O=[N+]([O-])c1ccc(C2=[N+]([O-])c3ccccc3N3CCCN=C23)cc1  MIC (Eggerthella lenta; microbial growth; ATCC43055): ≤ 0.06 µg/mL
CC(C)C[C@@H]1NC(=O)[C@H](C)NC(=O)[C@H](NC(=O)[C@H](CO)NC(=O)[C@@H](CCCCN)NC(=O)[C@@H](CC(C)C)NC(=O)[C@@H](N)Cc2ccccc2)[C@H](C)OC(=O)[C@H](CC(C)C)NC1=O  MIC (Bacillus subtilis Bacillus subtilis; ATCC 6051; tested as TFA salt): 1 µg/mL
N#Cc1ccc(-c2c[nH]c(CNC(=O)Nc3ncc(Sc4ccccn4)s3)n2)cc1  MIC (Bacteroides ovatus; broth microdilution; ATCC 8485; added: verapamil 50 µg/mL): > 128 µM
CC[C@H](C)[C@H](NC(=O)[C@H](CO)NC(=O)[C@H](CO)NC(=O)[C@H](Cc1ccccc1)NC(=O)CN)C(=O)N[C@@H](Cc1ccccc1)C(=O)N[C@@H](CCCNC(=N)N)C(N)=O  MIC (Escherichia coli; ATCC 8739; added: 6 µM NH4Cl): > 128 µM
CC[C@H](C)[C@H](NC(=O)[C@@H](NC(=O)CN)C(C)C)C(=O)N[C@@H](Cc1ccccc1)C(=O)N[C@@H](CC(N)=O)C(=O)N[C@@H](C)C(=O)N[C@@H](CC(C)C)C(=O)N[C@@H](CCCCN)C(=O)NCC(=O)N[C@H](C(=O)N[C@@H](C)C(=O)N[C@@H](CCCCN)C(=O)N[C@H](C(=O)N[C@H](C(=O)N[C@@H](C)C(=O)N[C@@H](C)C(=O)N[C@@H](CCC(N)=O)C(=O)N[C@@H](CC(C)C)C(=O)N[C@@H](CC(C)C)C(=O)N[C@@H](CCCCN)C(=O)N[C@@H](CCCCN)C(=O)N[C@@H](C)C(=O)N[C@@H](CCCNC(=N)N)C(=O)N[C@H]1CSSC[C@@H](C(=O)O)NC(=O)[C@H](CO)NC(=O)[C@H](CCCCN)NC(=O)[C@H](CC(=O)O)NC(=O)[C@H](CC(C)C)NC(=O)[C@H](CCCCN)NC1=O)C(C)C)[C@@H](C)O)C(C)C  MIC (Staphylococcus aureus; NCTC 10788, Mueller-Hinton broth; added: MgCl2 1 mM): 2 µM
C[N+]1=C2C(c3ccccc3)=[N+]([O-])c3ccccc3N2CCC1  MIC (Fusobacterium mortiferum; microbial growth): 4 µg/mL

For quick reference, copied from above:
CC1C(=NOCc2cc(-c3ccc(Cl)cc3)no2)C(C)C(c2ccc(Br)cc2)OC1c1ccc(Br)cc1 (stereo not shown)  MIC (Aspergillus flavus; microbial growth): 50 µg/mL
